{"data": "Measured values of several laboratories", "note": "Numbered parts are unrelated; each lists some results of a single study. Substitutions count along the parent as printed."}
{"data": "Set 1", "target": "Probable WRKY transcription factor 33, N-terminal DNA-binding domain (WRKY33, Arabidopsis thaliana, UniProt Q8S8P5, residues 169-264)", "method": "DNA-protein interaction ELISA", "molecule type": "double-stranded DNA, one strand shown", "sample": "in vitro, bacterial lysate", "concentration": "not given", "setting": "whole dsDNA probe, crude lysate protein", "baseline": "highest signal in screen", "direction": "higher = stronger binding", "Residues (chain)": "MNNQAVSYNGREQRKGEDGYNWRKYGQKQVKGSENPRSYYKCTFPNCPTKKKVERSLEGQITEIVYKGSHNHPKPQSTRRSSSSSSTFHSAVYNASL"}
{"Oligonucleotide": "AAAAAAATGCGCCCTTTCTGACATAAAAAA", "relative absorbance": "15.4 % of maximum"}
{"Oligonucleotide": "AAAAAATCTTCTTGTTTCTTATTTCTAAAA", "relative absorbance": "25.9 % of maximum"}
{"Oligonucleotide": "AAAAAACCTCTTGTCTCTGCTCTCCCAAAA", "relative absorbance": "22.4 % of maximum"}
{"Oligonucleotide": "AAAAAATTCCCAGCGTATCCGACCCGAAAA", "relative absorbance": "21.4 % of maximum"}
{"Oligonucleotide": "AAAAAACCTTCCCCCTCTTCTGCCTTAAAA", "relative absorbance": "31 % of maximum"}
{"Oligonucleotide": "AAAAAATTGCATTCCACCCTTAGGTTAAAA", "relative absorbance": "26 % of maximum"}
{"Oligonucleotide": "AAAAAAGTCCGCCCTTAATTCATATTAAAA", "relative absorbance": "59.4 % of maximum"}
{"Oligonucleotide": "AAAAAAGCTAGTCGATTCGGCTTAGAAAAA", "relative absorbance": "21.9 % of maximum"}
{"Oligonucleotide": "AAAAAAGGGAGTCATGCTTCTTGTTTAAAA", "relative absorbance": "30.7 % of maximum"}
{"Oligonucleotide": "AAAAAATTTATACTTGATCCTGGCTTAAAA", "relative absorbance": "27.5 % of maximum"}
{"Oligonucleotide": "AAAAAATGCCCTTTTTATCTTTATGTAAAA", "relative absorbance": "26.9 % of maximum"}
{"Oligonucleotide": "AAAAAATTGCACCTGATACTAGGGTTAAAA", "relative absorbance": "35.4 % of maximum"}
{"Oligonucleotide": "AAAAAAGACCGCAGCAAGAATTAAATAAAA", "relative absorbance": "25.8 % of maximum"}
{"Oligonucleotide": "AAAAAATCGCACTGCCGCCGATGGCTAAAA", "relative absorbance": "19.9 % of maximum"}
{"Oligonucleotide": "AAAAAACCTTACCTCATCCCTATCCCAAAA", "relative absorbance": "21.8 % of maximum"}
{"Oligonucleotide": "AAAAAAGTTCGGGGCTTGGTTTGGAAAAAA", "relative absorbance": "22.7 % of maximum"}
{"data": "Set 2", "target": "RNA binding protein fox-1 homolog 2, RRM domain, GST-SBP tag (RBFOX2, Homo sapiens, UniProt O43251-10, residues 100-194)", "method": "RNA Bind-n-Seq", "molecule type": "RNA", "sample": "in vitro", "concentration": "365 nM", "setting": "natural RNA segment, single round, ends assumed", "baseline": "no-protein control", "direction": "higher = stronger binding", "constant ends, left off below": "GGGAGUUCUACAGUCCGACGAUC … UGGAAUUCUCGGGUGCCAA", "Target sequence (chain)": "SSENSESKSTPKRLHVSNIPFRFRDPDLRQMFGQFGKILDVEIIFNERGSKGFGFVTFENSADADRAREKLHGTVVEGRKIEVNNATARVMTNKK"}
{"Oligonucleotide": "GUCCACCCUUCUCAUGUGACAGAUGGGGAAACUGAGGCCUUGAGAAGGAAAAAGGCUAAUCUAAGUUCCUGCGGGCAGUGGCAUGACUGGAGCACAGCCUCCUGCCUCCC", "RBNS enrichment (R)": 1.08}
{"Oligonucleotide": "AACCCUCACAUCAGAGUGACAUCCAGGAGGAAUAAGCUCCCAGGGCCUGUCUCAAGCUCUUCCUUACUCCCAGGCACUGUCUUAAGGCAUCUGACAUGCAUCAUCUCAUU", "RBNS enrichment (R)": 0.944}
{"Oligonucleotide": "CUGAAACAGCUGAGAGCCUAUUAGAGACCUGCUGCAAUGGCUGUCAGCCUUGGGAAAGGGGGACUCUUAGCUCUGUUGGUAUCACCGGGCCAUCUGGAAUGCAAGGUGAG", "RBNS enrichment (R)": 1.81}
{"Oligonucleotide": "GUUUCUGAGUCUGUGUUGCAGCCUCUGACACGUGGCUCACCGCUGUCAUUUGGGGGAUGGAAUGAACAGUCACUGUUCUAUAGCAUCCUCCUGUGCUCUUACCUAAGGAA", "RBNS enrichment (R)": 0.223}
{"Oligonucleotide": "AUCAUCUGCUUCUUUGAAGGAGUAAAUGUGUUUUGUUCCUAGGGCCAGAGGAGCUUGUCUUCCUUGUCCUCUGUUCCCACCCUCCCCUGAACAGAACCCAGCCCAUAAGA", "RBNS enrichment (R)": 0.471}
{"Oligonucleotide": "CUGGAGCAGUGUGCUGCGUAGUUCGGCCUGAGUUUGUGCAGCUUGUUAAGACAACUCUUGUGUACGCUAUGUUGAAGCUCAACAAAAAAGUCAUGGGACCACUUCUAGAA", "RBNS enrichment (R)": 0.822}
{"Oligonucleotide": "GUUUGAUAGACUAGUGCAGCGAUCAGCCAUAUGAUUGAGAGCUACUUUGGGGAUAUAUGGUACGUUGUUUUUGUUUUUUAGACUUAAUAAAGGACAACACGAGCUGGUCU", "RBNS enrichment (R)": 0.543}
{"Oligonucleotide": "AAAGGGUGUACUUAUAUCCACACUGCACACUGCCUGGCCCAAAACGUCUUAUUGUGGUAGGAUCAGCCCUCAUUUUGUUGCUUUUGUGAACUUUUUGUAGGGGACGAGAA", "RBNS enrichment (R)": 0.732}
{"Oligonucleotide": "UGCAUUUAACAUUCAUAGCCUACAACCACAGACGUGUCUGGGGGAGCCUGGCAAGGCGUUCCUCGUCACCAUCGUGUUUGCAAAGGUUCAAAAAACAAAAAUCAAAAAAA", "RBNS enrichment (R)": 0.504}
{"Oligonucleotide": "GGAGAAGGGGAAGCCUCUUGGAGACAGAGGGUUUCACCUUAUAUGACCUCAAGAGAAACAGCCUAAGAAGCCCGCCUUCUGGUCCCAAUCUGCAGACCCUCCAGCAGUUG", "RBNS enrichment (R)": 0.353}
{"Oligonucleotide": "CGUUUGGACAGCAGUGUUCUGUGGGCCCUCCCCUCCCCCAUAUCCUGCACCCCCUCAUAGCAGUAGUGGCUUCGCCAUUCUGUUUUCUGCAGUGUCCUGUACAAAACUGU", "RBNS enrichment (R)": 0.42}
{"Oligonucleotide": "AUUAUGGUUUUUAGUUAUGACAUCACAAUGUGUCAAGAGUGGAACAAUAAACGUUUCCCUUGUGUUCACUGAGGUUUGCACACAUGAACGUCUGUGUUCUGGAUCUUGGG", "RBNS enrichment (R)": 0.417}
{"data": "Set 3", "target": "CCND3, cyclin fold, Cln2 fusion (human)", "method": "yeast growth competition, sequencing", "sample": "yeast", "setting": "weak parent motif", "baseline": "not given", "direction": "higher = stronger binding", "starting sequence": "ORC1 docking peptide (human); PRARKRLELGNLG; partner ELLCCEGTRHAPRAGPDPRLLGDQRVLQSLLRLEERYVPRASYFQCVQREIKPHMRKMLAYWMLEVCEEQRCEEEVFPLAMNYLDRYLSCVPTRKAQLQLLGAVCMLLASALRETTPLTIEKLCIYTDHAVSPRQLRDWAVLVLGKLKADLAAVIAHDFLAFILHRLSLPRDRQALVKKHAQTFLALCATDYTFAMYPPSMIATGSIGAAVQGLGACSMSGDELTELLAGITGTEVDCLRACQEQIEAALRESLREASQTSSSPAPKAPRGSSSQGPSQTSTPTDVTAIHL"}
{"Variant": "N11V", "normalised enrichment score": 0.158}
{"Variant": "R2C", "normalised enrichment score": 0.103}
{"Variant": "N11C", "normalised enrichment score": 0.196}
{"Variant": "E8K", "normalised enrichment score": 0.0615}
{"Variant": "A3M", "normalised enrichment score": 0.298}
{"Variant": "R2S", "normalised enrichment score": 0.0822}
{"Variant": "G10W", "normalised enrichment score": 0.28}
{"Variant": "G10F", "normalised enrichment score": 0.158}
{"data": "Single results of other studies"}
{"Molecule": "PhoQ, residues 284 288 289 292 302 303 SIHLQL", "target": "PhoP, residues 12 14 15 18 19 HEGLL (Escherichia coli, UniProt P23836)", "test": "Sort-seq, item: YFP reporter", "test system": "E. coli", "setting": "PhoQ-PhoP variant library, together with: 10 µM Mg2+", "how to read": "baseline: high Mg2+ state, higher = stronger signaling", "quantity": "fold induction", "value": 10.8}
{"note": "A few entries again (set 3):"}
{"Variant": "R2S", "normalised enrichment score": 0.0822}
{"Variant": "G10W", "normalised enrichment score": 0.28}
{"Variant": "A3M", "normalised enrichment score": 0.298}
{"Variant": "E8K", "normalised enrichment score": 0.0615}
{"Variant": "G10F", "normalised enrichment score": 0.158}
{"Variant": "N11V", "normalised enrichment score": 0.158}
